Published values pooled from the literature.
Lines come from different studies, so protocols differ. “And” joins repeats or separate records; there may be more than shown. Numbers after ± are the reported error. Values after ≈ are worked out from the molar mass of the structure shown.

Structure (SMILES)	tested on	test	system	setting	scale	endpoint	value
C[C@@H]1C[C@@]2(N=CCS2)[C@]2(O)O[C@@H]3C[C@@]4(C=O)[C@@H](CC[C@@H]5[C@@H]4CC[C@]4(C)[C@@H](C6=CC(=O)OC6)CC[C@]54O)C[C@H]3O[C@@H]2O1	Schistosoma mansoni	microscopic viability score	adult worms	0.1 µM, 72 h	–	viability effect	51%
COc1cc(CCC[P+](c2ccccc2)(c2ccccc2)c2ccccc2)c(OC)c2c1OCO2.[I-]	SF-295	SRB	–	–	–	LC50	-4.54 log M
CCCCN1CCCC[C@@H]1C(=O)Nc1c(C)cccc1C	sodium channel (rat)	peak sodium current, blocker, whole-cell patch clamp	GH3	tonic block	–	Kd	139 ± 9 µM
CC(C)(C)c1cc(O)c2cc(Cc3ccccc3)c(=O)oc2c1	Schistosoma mansoni	microscopic viability score	adult worms	10 µM	–	viability reduction	26%
OC(Cn1cncn1)(Cn1cncn1)c1ccc(F)cc1F	Saccharomyces cerevisiae	cell growth	Pdr5 deleted, empty vector	2^-2.737 µg/mL	–	OD600	1.03 and 1.05 and 1.04
CNC(=O)Oc1cccc2c1OC(C)(C)C2O (stereo not drawn)	SH-SY5Y	neurite outgrowth, phase-contrast imaging	–	nominal concentration	relative to: IC10 over EC10	selectivity ratio	36.6
COc1c(CCC[P+](c2ccccc2)(c2ccccc2)c2ccccc2)cc2c(c1OC)OCO2.[I-]	MOLT-4	SRB	–	–	–	TGI	-4.79 log M
COc1ccc(-n2nc(C(C)=O)s/c2=N\N=C(/C)c2ccc(NC(C)=O)cc2)cc1	WI-38	–	–	1.25 µM	–	toxicity	96.8%
O=C(N[C@H](CO)[C@H](O)c1ccc([N+](=O)[O-])cc1)C(Cl)Cl	Burkholderia cepacia	–	6349	–	–	MIC	8 µg/mL (≈ 24.8 µM)
CCCCC1(CCCC)CN(c2ccccc2)c2cc(SC)c(OCC(=O)N[C@@H](C(=O)NCC(=O)O)c3ccccc3)cc2S(=O)(=O)C1	–	item: LDL cholesterol	human, serum	15 mg once daily, day 14	–	serum LDL-C	77.4 mg/dL
CC(=O)OCC[N+](C)(C)C	muscarinic M2 receptor, bullfrog	IK(ACh) current, agonist, whole-cell patch clamp	bullfrog atrial myocytes	–	–	EC50	0.101 µM
COc1cc(C(NCCc2c[nH]c3ccccc23)c2nnnn2C(C)(C)C)cc(OC)c1OC (stereo not drawn)	Schistosoma mansoni	microscopic viability scoring	newly transformed schistosomula	10 µM, 72 h, prescreen	–	viability reduction	23.3%
CC[C@H](C)[C@@H]1NC(=O)[C@@H]2CCCN2C(=O)[C@H](CC(C)C)NC(=O)[C@H](CC(C)C)NC(=O)CNC(=O)[C@@H](NC(=O)[C@@H](NC(=O)[C@H](CC(=O)O)NC(=O)CNC(=O)[C@@H](NC(=O)[C@H](C)NC(=O)CNC(=O)[C@H](CCCCN)NC(=O)[C@H](CC(C)C)NC(=O)[C@H](CC(C)C)NC(=O)[C@H](CCCCN)NC(=O)CNC(=O)[C@@H](NC(=O)[C@@H](N)CC(C)C)C(C)C)C(C)C)C(C)C)CSSC[C@@H](C(=O)O)NC1=O	–	RNA-seq, item: Slfn1 mRNA	mouse traumatic brain injury, frontal cortex and hippocampus	dose not given	relative to: TBI plus compound vs TBI	log2 fold change	-3.23
NC(=O)c1ncn([C@@H]2O[C@H](CO)[C@@H](O)[C@H]2O)n1	lymphocytic choriomeningitis virus	reporter gene	BHK-21	50 µM, minigenome, Gaussia luciferase	relative to: DMSO	reporter activity	53.1%
C[C@@H](O[C@H]1OCCN(Cc2n[nH]c(=O)[nH]2)[C@H]1c1ccc(F)cc1)c1cc(C(F)(F)F)cc(C(F)(F)F)c1	Human immunodeficiency virus 1	viral replication	PBMC, CRF01_AE isolate from Indonesia, R5, NSI	–	–	IC50	7.13 µM
CC[C@H](C)[C@H](NC(=O)[C@H](C)NC(=O)[C@H](CCCCN)NC(=O)[C@H](CC(C)C)NC(=O)[C@H](C)NC(=O)[C@@H](NC(=O)[C@H](Cc1c[nH]cn1)NC(=O)[C@H](CC(C)C)NC(=O)[C@@H](NC(=O)[C@@H](NC(=O)[C@H](CCCCN)NC(=O)[C@H](C)NC(=O)[C@H](C)NC(=O)[C@H](CO)NC(=O)[C@H](CCCCN)NC(=O)[C@H](Cc1ccccc1)NC(=O)[C@@H](NC(=O)[C@H](CCCCN)NC(=O)[C@H](CC(C)C)NC(=O)[C@H](Cc1ccccc1)NC(=O)[C@H](CO)NC(=O)[C@H](CCCCN)NC(=O)[C@H](Cc1c[nH]c2ccccc12)NC(=O)[C@H](CCCCN)NC(C)=O)[C@@H](C)O)[C@@H](C)O)C(C)C)[C@@H](C)O)C(=O)N[C@@H](CO)C(=O)N[C@@H](CO)C(N)=O	Enterobacter aerogenes	–	–	40 strains	–	MBC90	> 64 µg/mL
Cc1c2c(nn1C)CSCc1cc(n(C)n1)CSc1cc(c3ccccc3c1)OCCCc1c(C(=O)O)n(C)c3c-2c(Cl)ccc13	Staphylococcus aureus	label-free quantitative proteomics, item: SAOUHSC_01450 protein	SA113	concentration not given	relative to: untreated control	fold change	0.0254
CCOC(=O)CCCn1c(S)nc2ccccc21	Schistosoma mansoni	microscopic viability scoring	newly transformed schistosomula	10 µM, 72 h, prescreen	–	viability reduction	20%
CC[C@@H](C)[C@@H](NC(=O)[C@@H](Cc1ccc(O)cc1)NC(=O)[C@H]1CCCN1C(=O)[C@@H](CCCNC(=N)N)NC(=O)[C@H](N)Cc1c[nH]cn1)C(=O)N[C@H](C)C(=O)N[C@H](Cc1c[nH]cn1)C(=O)N[C@H](CCCNC(=N)N)C(=O)N[C@H](CCCCNC(=O)c1cccc(S(=O)(=O)F)c1)C(=O)N[C@H](Cc1ccc(O)cc1)C(=O)N[C@H](CO)C(=O)N[C@H](Cc1ccccc1)C(N)=O	–	ex vivo flow cytometry	MC-38 tumour-bearing mice, tumour	1.3 mg/kg	relative to: CD4+ T cells	IFN-γ+ CD4+ T cells	5.06% and 4.77% and 5.27% and 4.07%
CCOC(=O)c1cc2cc(Br)ccc2oc1=O	Schistosoma mansoni	microscopic viability scoring	newly transformed schistosomula	10 µM, 72 h, prescreen	–	viability reduction	17.3%
CS(=O)(=O)CCCn1c(Cn2c(=O)n(CC(F)(F)F)c3ccncc32)cc2cc(Cl)ccc21	respiratory syncytial virus	RT-qPCR	hospitalized infants 1-24 months, nasal swab	oral, 6, 4.5 or 3 mg/kg daily, day 7, mid dose by age cohort	relative to: placebo	LS mean difference vs placebo	0.16 log10 copies/mL
CNc1ncc2c(/C=C/C(=O)N3CCC4(CC3)OCCO4)nn(Cc3cccc(C(F)(F)F)c3)c2n1	CP-A pre-malignant	cell viability, PrestoBlue	–	120 h	–	EC50	0.12 µM
Oc1ccc(-c2cc(Cl)ccc2Cl)c(Cl)c1	gap junction, rat	gap junctional communication, scrape loading dye transfer	WB-F344 rat liver epithelial	1 h	–	IC25	7 µM
FC(F)(F)c1ccc2c(c1)[C@@H]1CNC[C@H]2C1	–	two-bottle choice	Wistar rat, intermittent 20% ethanol access	subcutaneous, 5 mg/kg, 6 h	–	ethanol intake	3 ± 0.2 g/kg

For quick reference, copied from above:
Structure (SMILES)	tested on	test	system	setting	scale	endpoint	value
CCCCN1CCCC[C@@H]1C(=O)Nc1c(C)cccc1C	sodium channel (rat)	peak sodium current, blocker, whole-cell patch clamp	GH3	tonic block	–	Kd	139 ± 9 µM
NC(=O)c1ncn([C@@H]2O[C@H](CO)[C@@H](O)[C@H]2O)n1	lymphocytic choriomeningitis virus	reporter gene	BHK-21	50 µM, minigenome, Gaussia luciferase	relative to: DMSO	reporter activity	53.1%
Oc1ccc(-c2cc(Cl)ccc2Cl)c(Cl)c1	gap junction, rat	gap junctional communication, scrape loading dye transfer	WB-F344 rat liver epithelial	1 h	–	IC25	7 µM
